Assay results collected from several papers.
± gives the spread as reported.
Organism: Salmonella typhimurium

Structure (SMILES)	test	test system	setting	scale	measurement	value
COCCN(CCOC)N=O	mutagenicity, Ames plate incorporation	TA1537	1500 µg/plate, 3 d, without S9, methanol	–	revertant colonies per plate	14 ± 5
O=[N+]([O-])c1ccc(N2CCN(CCC(O)c3ccc(F)cc3)CC2)c(C(F)(F)F)c1 (stereo not drawn)	SOS/umu test	TA1535/pSK1002	0.004 mg/mL, 4 h, without S9, full range	–	survival	105%
CC(=O)N1CCC(C(=O)N2CCN3C(=O)c4cc(-c5ccccc5)ccc4NC(=O)C3C2)CC1 (stereo not drawn)	–	TA1537	15.8 µg/plate	baseline: vehicle	fold increase in revertants	1.3
CN(CC(C)(C)C)N=O	mutagenicity, Ames plate incorporation	TA100	150 µg/plate, without S9, methanol	–	revertant colonies per plate	148 ± 6
O=[N+]([O-])c1ccc(N2CCC(NCCC(O)c3ccc(F)c4ccccc34)CC2)c(C(F)(F)F)c1 (stereo not drawn)	genotoxicity, SOS/umu test	TA1535/pSK1002	0.002 mg/mL, 4 h, without S9, lower range	–	induction factor	0.6
N#C[C@@]1(n2ccc(N)nc2=O)O[C@H](CO)[C@@H](O)[C@H]1O	–	TA100	1.2 µM, without S9	baseline: control	viability	106%
Cc1cc(C(=O)NC(C)(C)COc2cccc3c2C(N)=NS(=O)(=O)N3)cc(C)n1	Ames test, initial	TA1537	1500 µg/plate	baseline: solvent control	revertant ratio	1.2
OC(CCN1CC=C(c2ccc(F)cc2)CC1)c1ccc(F)c2ccccc12 (stereo not drawn)	SOS response, SOS/umu test	TA1535/pSK1002, TGA medium	0.001 mg/mL, 4 h, with: rat liver S9	baseline: untreated	induction factor	1.4
CN(N=O)c1ccc(F)cc1	mutagenicity, Ames plate incorporation	TA98	2500 µg/plate, 3 d, without S9, methanol	–	revertant colonies per plate	24 ± 6
O=[N+]([O-])c1ccc(NC2CCNCC2)c(C(F)(F)F)c1	SOS/umu test	TA1535/pSK1002	0.004 mg/mL, 4 h, with S9, full range	–	survival	99.5%
CNC(=O)c1c(N(C)N=O)ncn1C	plate incorporation	TA100, water	150 µg/plate, without S9	–	revertant colonies per plate	198 ± 22
COc1cccc(-c2n[nH]c(SCc3ccccn3)n2)c1OC	Ames test, preincubation	TA100	0.13 mg/plate, with rat liver S9	–	revertant colonies per plate	145

Repeated from above:
Structure (SMILES)	test	test system	setting	scale	measurement	value
O=[N+]([O-])c1ccc(N2CCN(CCC(O)c3ccc(F)cc3)CC2)c(C(F)(F)F)c1 (stereo not drawn)	SOS/umu test	TA1535/pSK1002	0.004 mg/mL, 4 h, without S9, full range	–	survival	105%
OC(CCN1CC=C(c2ccc(F)cc2)CC1)c1ccc(F)c2ccccc12 (stereo not drawn)	SOS response, SOS/umu test	TA1535/pSK1002, TGA medium	0.001 mg/mL, 4 h, with: rat liver S9	baseline: untreated	induction factor	1.4
